Measured values of several laboratories.
Lines come from different studies, so protocols differ. ± gives the spread as reported.
Ribonucleoside-diphosphate reductase large subunit: Ribonucleoside-diphosphate reductase large subunit (Homo sapiens, UniProt P23921)
UniProt P23921, sequence (whole entry, looked up): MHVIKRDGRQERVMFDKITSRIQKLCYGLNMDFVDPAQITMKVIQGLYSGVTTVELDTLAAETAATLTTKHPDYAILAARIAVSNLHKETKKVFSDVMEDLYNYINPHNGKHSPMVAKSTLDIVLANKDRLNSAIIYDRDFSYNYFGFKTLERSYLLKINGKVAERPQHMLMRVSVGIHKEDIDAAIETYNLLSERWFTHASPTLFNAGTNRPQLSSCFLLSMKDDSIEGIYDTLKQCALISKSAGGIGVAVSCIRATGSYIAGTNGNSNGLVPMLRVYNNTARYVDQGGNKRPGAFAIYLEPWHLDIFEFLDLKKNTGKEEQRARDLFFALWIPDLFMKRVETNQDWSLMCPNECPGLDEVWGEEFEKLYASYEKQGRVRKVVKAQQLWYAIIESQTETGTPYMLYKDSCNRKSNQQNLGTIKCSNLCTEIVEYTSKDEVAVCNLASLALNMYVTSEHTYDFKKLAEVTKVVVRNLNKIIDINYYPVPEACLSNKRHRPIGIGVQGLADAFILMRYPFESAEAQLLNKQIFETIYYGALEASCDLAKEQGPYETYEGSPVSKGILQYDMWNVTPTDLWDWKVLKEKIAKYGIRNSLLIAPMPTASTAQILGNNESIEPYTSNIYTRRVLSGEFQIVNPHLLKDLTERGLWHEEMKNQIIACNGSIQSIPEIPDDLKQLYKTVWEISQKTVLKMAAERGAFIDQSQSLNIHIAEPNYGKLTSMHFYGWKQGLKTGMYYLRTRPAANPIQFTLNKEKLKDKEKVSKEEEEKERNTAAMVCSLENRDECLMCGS
Methyl-accepting chemotaxis protein Tlp3 sensing domain: Methyl-accepting chemotaxis protein Tlp3, sensing domain (Campylobacter jejuni, UniProt Q0P864)
BCL2L1: Bcl-2-like protein 1 (BCL2L1, Homo sapiens, UniProt Q07817)
UniProt Q07817, sequence (whole entry, looked up): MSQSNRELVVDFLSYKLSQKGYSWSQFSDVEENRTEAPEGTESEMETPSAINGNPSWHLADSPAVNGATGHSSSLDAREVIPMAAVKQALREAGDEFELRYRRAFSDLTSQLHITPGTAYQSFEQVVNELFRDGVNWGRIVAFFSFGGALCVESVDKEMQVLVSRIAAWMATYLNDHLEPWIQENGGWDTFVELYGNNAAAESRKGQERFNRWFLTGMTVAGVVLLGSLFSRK
B1: calmodulin N-terminal domain; chain AEQLTEEQIAEFKEAFALFDKDGDGTITTKELGTVMRSLGQNPTEAELQDMINEVDADGNGTIDFPEFLSLMARK
UniProt Q9P2K8, sequence (whole entry, looked up): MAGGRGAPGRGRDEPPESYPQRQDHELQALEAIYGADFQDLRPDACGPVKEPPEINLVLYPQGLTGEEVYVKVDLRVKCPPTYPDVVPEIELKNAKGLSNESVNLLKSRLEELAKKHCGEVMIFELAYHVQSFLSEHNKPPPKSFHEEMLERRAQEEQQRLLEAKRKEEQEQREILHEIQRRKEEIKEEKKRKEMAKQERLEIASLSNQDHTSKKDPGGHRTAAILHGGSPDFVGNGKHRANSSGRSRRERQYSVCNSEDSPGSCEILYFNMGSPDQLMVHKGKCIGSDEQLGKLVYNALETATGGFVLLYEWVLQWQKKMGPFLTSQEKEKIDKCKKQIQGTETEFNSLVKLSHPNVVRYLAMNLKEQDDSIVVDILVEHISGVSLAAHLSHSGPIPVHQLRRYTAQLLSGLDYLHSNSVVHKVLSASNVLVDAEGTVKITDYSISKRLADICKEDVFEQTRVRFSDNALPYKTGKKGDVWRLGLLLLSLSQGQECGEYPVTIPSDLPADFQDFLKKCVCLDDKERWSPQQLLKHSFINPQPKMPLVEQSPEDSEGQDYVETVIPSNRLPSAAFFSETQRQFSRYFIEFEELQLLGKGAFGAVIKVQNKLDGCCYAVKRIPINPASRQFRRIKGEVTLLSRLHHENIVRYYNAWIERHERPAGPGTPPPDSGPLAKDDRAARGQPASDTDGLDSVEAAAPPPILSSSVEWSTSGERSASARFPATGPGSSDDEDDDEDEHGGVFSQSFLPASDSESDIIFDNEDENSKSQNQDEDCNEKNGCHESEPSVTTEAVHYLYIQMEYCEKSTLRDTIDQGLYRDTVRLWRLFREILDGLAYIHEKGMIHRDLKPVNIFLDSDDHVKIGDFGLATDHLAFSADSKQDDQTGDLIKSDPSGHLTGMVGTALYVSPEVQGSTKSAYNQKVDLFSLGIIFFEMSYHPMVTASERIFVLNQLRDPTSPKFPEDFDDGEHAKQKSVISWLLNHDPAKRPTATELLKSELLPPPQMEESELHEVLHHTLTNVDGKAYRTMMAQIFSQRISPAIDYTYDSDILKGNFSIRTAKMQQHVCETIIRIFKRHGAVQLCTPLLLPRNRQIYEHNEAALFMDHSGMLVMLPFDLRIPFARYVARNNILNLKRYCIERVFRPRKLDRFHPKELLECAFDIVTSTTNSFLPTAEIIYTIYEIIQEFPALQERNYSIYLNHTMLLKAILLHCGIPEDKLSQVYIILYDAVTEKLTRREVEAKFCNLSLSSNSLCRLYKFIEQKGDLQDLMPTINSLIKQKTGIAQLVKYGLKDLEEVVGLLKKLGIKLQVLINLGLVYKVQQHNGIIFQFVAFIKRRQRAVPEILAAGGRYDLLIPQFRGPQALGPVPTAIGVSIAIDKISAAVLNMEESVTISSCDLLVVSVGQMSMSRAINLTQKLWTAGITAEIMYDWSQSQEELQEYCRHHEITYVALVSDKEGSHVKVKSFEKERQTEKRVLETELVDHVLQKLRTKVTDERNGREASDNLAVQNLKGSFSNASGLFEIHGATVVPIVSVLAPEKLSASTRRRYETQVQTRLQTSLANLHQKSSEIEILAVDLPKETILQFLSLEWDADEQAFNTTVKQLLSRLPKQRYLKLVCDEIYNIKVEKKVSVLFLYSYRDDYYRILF
UniProt Q08460, sequence (whole entry, looked up): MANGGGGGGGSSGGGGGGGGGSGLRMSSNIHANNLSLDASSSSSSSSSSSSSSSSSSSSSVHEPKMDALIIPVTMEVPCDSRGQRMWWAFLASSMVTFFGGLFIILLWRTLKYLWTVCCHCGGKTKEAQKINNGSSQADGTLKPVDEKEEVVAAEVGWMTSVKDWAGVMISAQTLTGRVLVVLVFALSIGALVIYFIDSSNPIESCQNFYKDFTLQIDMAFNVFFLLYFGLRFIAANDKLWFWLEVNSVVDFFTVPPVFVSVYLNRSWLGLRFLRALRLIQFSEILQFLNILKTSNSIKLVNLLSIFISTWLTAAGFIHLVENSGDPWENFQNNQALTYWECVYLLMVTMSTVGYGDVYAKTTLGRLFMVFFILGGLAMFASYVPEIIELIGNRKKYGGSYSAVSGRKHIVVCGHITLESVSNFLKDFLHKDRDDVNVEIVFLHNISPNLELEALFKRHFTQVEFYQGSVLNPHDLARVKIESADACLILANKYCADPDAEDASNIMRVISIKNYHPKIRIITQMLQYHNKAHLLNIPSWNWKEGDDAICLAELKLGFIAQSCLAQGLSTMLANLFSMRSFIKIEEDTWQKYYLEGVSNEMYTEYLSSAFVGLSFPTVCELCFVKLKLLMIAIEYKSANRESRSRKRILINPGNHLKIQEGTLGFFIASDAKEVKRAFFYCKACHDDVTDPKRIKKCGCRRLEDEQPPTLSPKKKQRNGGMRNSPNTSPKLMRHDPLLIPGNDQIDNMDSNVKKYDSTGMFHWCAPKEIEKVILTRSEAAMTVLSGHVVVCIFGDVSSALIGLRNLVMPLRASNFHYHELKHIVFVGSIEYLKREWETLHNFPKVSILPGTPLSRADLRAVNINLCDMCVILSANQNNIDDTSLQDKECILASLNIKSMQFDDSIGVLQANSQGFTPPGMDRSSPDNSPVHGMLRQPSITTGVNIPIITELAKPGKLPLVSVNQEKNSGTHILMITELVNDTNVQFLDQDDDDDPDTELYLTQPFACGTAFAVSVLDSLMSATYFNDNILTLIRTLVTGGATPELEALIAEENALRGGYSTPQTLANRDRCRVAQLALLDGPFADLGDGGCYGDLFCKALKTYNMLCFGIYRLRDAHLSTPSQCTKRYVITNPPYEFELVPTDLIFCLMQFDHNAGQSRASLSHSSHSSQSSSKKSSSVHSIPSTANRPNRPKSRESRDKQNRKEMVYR
UniProt P0DMV8, sequence (whole entry, looked up): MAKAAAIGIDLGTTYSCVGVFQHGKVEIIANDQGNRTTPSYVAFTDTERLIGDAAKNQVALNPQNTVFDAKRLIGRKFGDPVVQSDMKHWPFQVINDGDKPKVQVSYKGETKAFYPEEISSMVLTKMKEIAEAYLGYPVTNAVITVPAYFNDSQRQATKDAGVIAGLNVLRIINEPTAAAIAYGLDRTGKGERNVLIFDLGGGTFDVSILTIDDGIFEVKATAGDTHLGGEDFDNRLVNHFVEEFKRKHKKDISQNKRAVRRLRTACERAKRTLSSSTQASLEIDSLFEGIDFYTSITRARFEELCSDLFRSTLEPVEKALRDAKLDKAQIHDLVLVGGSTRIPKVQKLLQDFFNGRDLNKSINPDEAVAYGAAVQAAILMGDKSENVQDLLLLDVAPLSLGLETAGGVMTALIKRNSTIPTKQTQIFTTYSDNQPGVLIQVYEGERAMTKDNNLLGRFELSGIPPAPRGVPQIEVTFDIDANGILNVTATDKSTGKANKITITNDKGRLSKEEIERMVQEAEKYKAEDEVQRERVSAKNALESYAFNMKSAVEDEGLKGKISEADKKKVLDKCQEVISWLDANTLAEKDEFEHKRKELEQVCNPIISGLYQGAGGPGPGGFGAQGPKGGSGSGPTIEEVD
UniProt P02716, sequence (whole entry, unmodified, looked up): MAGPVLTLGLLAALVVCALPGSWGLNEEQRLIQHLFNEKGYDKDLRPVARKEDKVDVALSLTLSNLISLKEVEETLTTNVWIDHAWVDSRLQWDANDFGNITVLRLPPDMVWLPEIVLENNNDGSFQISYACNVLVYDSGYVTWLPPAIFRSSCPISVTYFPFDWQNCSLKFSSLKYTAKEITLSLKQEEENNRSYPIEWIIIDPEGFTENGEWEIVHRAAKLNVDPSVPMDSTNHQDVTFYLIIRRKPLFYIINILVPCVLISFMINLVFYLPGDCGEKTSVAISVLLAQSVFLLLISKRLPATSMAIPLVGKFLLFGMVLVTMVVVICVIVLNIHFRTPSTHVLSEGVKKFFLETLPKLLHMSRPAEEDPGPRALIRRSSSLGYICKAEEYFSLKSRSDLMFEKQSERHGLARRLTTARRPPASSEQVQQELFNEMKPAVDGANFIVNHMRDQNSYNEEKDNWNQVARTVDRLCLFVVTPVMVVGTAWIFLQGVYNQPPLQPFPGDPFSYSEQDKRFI

For `[I-].[K+]`, the Kd was 66300 µM (SLC4A1 (Homo sapiens, UniProt P02730); 36Cl exchange flux, inhibitor, Dixon plot; human red blood cells; pH 11.9 external, 0 °C, internal Cl 294 mM, CAPS buffer).
The Kd of `Cn1nc(CC(=O)Nc2cc(S(=O)(=O)Nc3cccc(Cl)c3)ccc2O)c2ccccc2c1=O` is reported as 8.8 ± 0.4 µM (APOE (Homo sapiens, UniProt P02649); SYPRO Orange displacement; pH 7.4, 25 °C).
`COc1ccc(-c2cnc(-c3ccccc3O)s2)cc1` has a Kd of 9.9 µM (Ribonucleoside-diphosphate reductase large subunit; binding, fluorescence).
With `Thymosin beta-4` the Kd was 2 to 3 µM (actin, rabbit skeletal muscle; pyrenyl actin elongation).
With `O=C(N/N=C/c1cccnc1)c1c(O)ccc2ccccc12` the Kd was 16.3 µM (Ribonucleoside-diphosphate reductase large subunit; binding, fluorescence).
The Kd of `CC(C)S[C@@H]1O[C@H](CO)[C@H](O)[C@H](O)[C@H]1O` is reported as 32.4 ± 2.7 µM (PA-I galactophilic lectin (lecA, Pseudomonas aeruginosa, UniProt Q05097); isothermal titration calorimetry; pH 7.5, 25 °C, with: 25 mM CaCl2).
For `O=S(=O)(O)c1ccc2c(ccc3nn(-c4ccc(/C=C/c5ccc(-n6nc7ccc8cc(S(=O)(=O)O)ccc8c7n6)cc5S(=O)(=O)O)c(S(=O)(=O)O)c4)nc32)c1`, the Kd was 11.4 ± 2.2 µM (UBC (Homo sapiens, UniProt P0CG48); binding, NMR titration).
For `Cn1cc(NC(=O)c2cc(NC(=O)c3cc(NC=O)cn3C)cn2C)cc1C(=O)NCCC(=N)N`, the Kd was 58.1 ± 6.3 µM (HIV-1 nucleocapsid-SL3 RNA complex; binding, ESI-FTMS; pH 7.5).
`CC1=C(/C=C/C(C)=C\C=C\C(C)=C\CO)C(C)(C)CCC1` gave a Kd of 0.068 ± 0.007 µM (Retinol-binding protein 2 (Rbp2, Rattus norvegicus, UniProt P06768); binding, fluorescence titration; pH 7.4, 25 °C).
`NC(=O)C1=CN([C@@H]2O[C@H](COP(=O)(O)OP(=O)(O)OC[C@H]3O[C@@H](n4cnc5c(N)ncnc54)[C@H](O)[C@@H]3O)[C@@H](O)[C@H]2O)C=CC1` has a Kd of 79 ± 29 µM (Pyrroline-5-carboxylate reductase 3 (PYCR3, Homo sapiens, UniProt Q53H96); binding, bisubstrate kinetics; pH 7.5, 26 °C, equilibrium ordered bi bi, compound binds first).
With `CC(=O)[C@H]1CC[C@H]2[C@@H]3CCC4=CC(=O)CC[C@]4(C)[C@H]3CC[C@]12C` the Kd was 36 µM (Cytochrome P450 3A4 (CYP3A4, Homo sapiens, UniProt P08684, S18F); POPC Nanodiscs; pH 7.4, 37 °C, third binding step).
The Kd of `CCC[C@H](N)C(=O)O` is reported as 3800 ± 1500 µM (Methyl-accepting chemotaxis protein Tlp3 sensing domain; binding, thermal shift curve fitting; at Tm sensing domain).
The Kd of `B1 (calmodulin N-terminal domain)` is reported as over 100 µM (rat NaV1.2 IQ motif; FRET biosensor titration; pH 7.4, 22 °C, calcium-saturated, with: 1 mM CaCl2; lower limit).
`AAQELRRYGDEY` gave a Kd of 0.004 ± 0.002 µM (BCL2L1; yeast display titration; peptide; 2 h, pH 8.0, room temperature).
The Kd of `CCCCCCCCCC[N+](CC)(CC)CC` is reported as 14.5 µM (Kcnma1 (Mus musculus, UniProt Q08460); ion current, blocker, inside-out patch clamp; 100 mV).
The Kd of `O=C(NN=Cc1ccc(C[n+]2ccccc2)cc1)c1ccc2ccc3ccc(C(=O)NN=Cc4ccc(C[n+]5ccccc5)cc4)nc3c2n1` is reported as over 10 µM (telomeric G4 DNA hybrid-2; binding, fluorescence titration; 100 mM KCl buffer; pH 7.2, with: labelled G4 DNA 2 nM).
`Nc1ncnc2c1ncn2[C@@H]1O[C@H](COP(=O)(O)OP(=O)(O)NP(=O)(O)O)[C@@H](O)[C@H]1O` has a Kd of 9 µM (Heat shock 70 kDa protein 1A, non-phosphorylated (HSPA1A, Homo sapiens, UniProt P0DMV8); binding, isothermal titration calorimetry; pH 7.5, Mg2+ free).
For `Nc1ncnc2c1ncn2-c1ccc(/C=N/NC(=O)c2ccccc2O)cc1`, the Kd was 19.3 µM (Ribonucleoside-diphosphate reductase large subunit; binding, fluorescence; pH 8).
`CC(=O)N[C@@H](CC(C)C)C(=O)N[C@@H](CCCCN)C(=O)N[C@@H](CCCCN)C(=O)N[C@@H](CC(C)C)C(=O)N[C@@H](CC(C)C)C(=O)N[C@@H](CCCCN)C(=O)N[C@@H](CC(C)C)C(=O)N[C@@H](CC(C)C)C(=O)N[C@@H](CCCCN)C(=O)N[C@@H](CCCCN)C(=O)N[C@@H](Cc1c[nH]c2ccccc12)C(=O)N[C@@H](CC(C)C)C(=O)N[C@@H](CCCCN)C(=O)N[C@@H](CC(C)C)C(=O)N[C@@H](C)C(=O)NCC(N)=O` gave a Kd of 0.0095 ± 0.001 µM (HIV-1 RRE hairpin RNA; competitive fluorescence anisotropy; pH 7.4, 20 °C, with: rhodamine-Rev peptide).
The Kd of `VGAQLRRIADDV` is reported as 0.00026 ± 6e-05 µM (BCL2L1; yeast display titration; peptide; 2 h, pH 8.0, room temperature).
`O=C(NNC(=O)c1c(O)ccc2ccccc12)c1cccnc1` has a Kd of 89.6 µM (Ribonucleoside-diphosphate reductase large subunit; binding, fluorescence; pH 8).
`COc1ccc(OCc2ccccn2)c(C=O)c1` has a Kd of 190 µM (Hemoglobin subunit alpha, with beta chain (HBA1, Homo sapiens, UniProt P69905); steady-state binding, cation-exchange HPLC; 37 °C).
For `CC[n+]1c(-c2ccccc2)c2cc(N)ccc2c2ccc(N)cc21`, the Kd was 25.5 ± 2.3 µM (HIV-1 nucleocapsid-SL4 RNA complex; binding, ESI-FTMS; pH 7.5).
The Kd of `CC(=O)N[C@@H](CC(C)C)C(=O)N[C@@H](CCCCN)C(=O)N[C@@H](CCCCN)C(=O)N[C@@H](CC(C)C)C(=O)N[C@@H](CC(C)C)C(=O)N[C@@H](CCCCN)C(=O)N[C@@H](Cc1c[nH]c2ccccc12)C(=O)N[C@@H](CC(C)C)C(=O)N[C@@H](CCCCN)C(=O)N[C@@H](CCCCN)C(=O)N[C@@H](CC(C)C)C(=O)N[C@@H](CC(C)C)C(=O)N[C@@H](CCCCN)C(=O)N[C@@H](CC(C)C)C(=O)N[C@@H](C)C(=O)NCC(N)=O` is reported as 0.021 ± 0.001 µM (HIV-1 TAR hairpin RNA; competitive fluorescence anisotropy; pH 7.4, 20 °C, with: rhodamine-Rev peptide).
For `Nc1ncnc2c1ncn2[C@H]1C[C@H](O)[C@@H](COP(=O)(O)OP(=O)(O)OP(=O)(O)O)O1`, the Kd was 8 ± 1 µM (DNA polymerase kappa (POLK, Homo sapiens, UniProt Q9UBT6); nucleotide incorporation, substrate; pH 8.0, 37 °C, opposite undamaged dT).
`Nc1ncnc2c1ncn2[C@@H]1O[C@H](COP(=O)(O)OP(=O)(O)OP(=O)(O)O)[C@@H](O)[C@H]1O` gave a Kd of 92 µM (eIF-2-alpha kinase GCN2 (EIF2AK4, Homo sapiens, UniProt Q9P2K8)).
The Kd of `C[C@H](N)C(=O)N[C@@H](CCCNC(=N)N)C(=O)N[C@H](C(=O)N[C@@H](CCCCN)C(=O)N[C@@H](CCC(N)=O)C(=O)N[C@H](C(=O)N[C@@H](C)C(=O)N[C@@H](CCCNC(=N)N)C(=O)N[C@@H](CCCCN)C(=O)N[C@@H](CO)C(=O)N[C@H](C(=O)NCC(=O)O)[C@@H](C)O)[C@@H](C)O)[C@@H](C)O` is reported as 73.9 ± 12.2 µM (Baculoviral IAP repeat-containing protein 5.1-A (birc5.1-a, Xenopus laevis, UniProt Q8JGN5); ITC; pH 7.8, 25 °C).
The Kd of `CN(C)c1cccc2c(S(=O)(=O)NCCCCCCCCCCC(=O)O)cccc12` is reported as over 3.3 µM (Fatty acid-binding protein, liver (FABP1, Homo sapiens, UniProt P07148); binding, fluorescence titration; low-affinity site, with: FABP1 0.3 µM).
The Kd of `CC(C)[C@H](N)C(=O)O` is reported as 688 ± 188 µM (Methyl-accepting chemotaxis protein Tlp3 sensing domain; binding, thermal shift; 25 °C, curve fitting, ITC enthalpy).
With `Cc1occc(=S)c1O` the Kd was 350 µM (Carbonic anhydrase 2, Co(II)-substituted (CA2, Bos taurus, UniProt P00921); binding, UV-vis titration; pH 7.5, protonated form).
`C[N+](C)(C)CCO` gave a Kd of 3200 ± 600 µM (Chrnd/Chrna1/Chrne (Mus musculus, UniProt P02716+P04756+P20782, D117E); binding).
